# Published values from different studies.
# A part holds a random share of what one study measured. Substitutions count along the parent as printed.

# Block 1
# Target: ABI1, truncated, D143A, DHFR fusion (Arabidopsis thaliana)
# Technique: DHFR PCA, deep sequencing
# Sample: yeast
# Setting: methotrexate growth selection, single substitutions
# Together with: (+)-ABA 1.4 µM
# Reference: wild-type fitted maximum
# Direction: higher = stronger binding
# Starting sequence: PYL1, truncated, DHFR fusion (Arabidopsis thaliana); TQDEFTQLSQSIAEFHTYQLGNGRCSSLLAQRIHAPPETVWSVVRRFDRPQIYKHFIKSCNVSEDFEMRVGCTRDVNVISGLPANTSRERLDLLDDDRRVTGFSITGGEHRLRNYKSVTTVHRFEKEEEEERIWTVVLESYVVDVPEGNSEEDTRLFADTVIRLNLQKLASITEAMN
Substitution,relative binding score [%]
L112P,16.3
E130M,47.4
D48R,-5.52
L94G,-2.38
H55G,65.5
A175G,61.8
R74P,-6.8
V62F,7.83
L28C,30.6
T119P,-4.58
G23M,25.9
N177D,57.9
S42E,61.1
S140M,9.24
F157P,17.3
F5N,-1.67
P36Q,27.2
H16Q,-2.03
D159I,-13
E14Q,32.3
V121W,-9.12
V137S,2.75

# Block 2
# Target: Myc proto-oncogene protein, bHLH-zipper, MAX partner unstated (MYC, Homo sapiens, UniProt P01106, residues 368-449)
# UniProt P01106, sequence (368-449, looked up): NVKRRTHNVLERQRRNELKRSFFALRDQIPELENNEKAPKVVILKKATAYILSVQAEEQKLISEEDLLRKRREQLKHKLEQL
# Technique: protein-binding microarray
# Molecule type: double-stranded DNA, one strand shown
# Sample: in vitro
# Concentration: not given
# Setting: k-mer, scored over probes, only values ≥0.25
# Direction: higher = stronger binding
Oligonucleotide,E-score
CATGCTGA,0.4
ACGCGTCT,0.309
CATGAGGA,0.387
CGTCATGC,0.287
CACCATGC,0.437
ACGACGTG,0.379
CACGAGAG,0.291
ACCGCCCC,0.264
CGTGACCC,0.277
ATGGCACG,0.377
ACGTGAGC,0.269
ACACGACC,0.29
AAAACATG,0.269

# Block 3
# Target: CREM, bZIP domain (human)
# Technique: DHFR protein complementation
# Sample: yeast
# Setting: single substitutions, most at no-binding floor
# Reference: wild-type JUN-FOS pair
# Direction: higher = stronger binding
# Starting sequence: JUN, bZIP domain (human); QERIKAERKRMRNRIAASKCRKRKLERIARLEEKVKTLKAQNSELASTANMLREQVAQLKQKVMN; partner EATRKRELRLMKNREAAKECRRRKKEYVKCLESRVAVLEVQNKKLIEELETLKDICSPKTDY
Substitution,binding fitness
R30Y,-1.23 natural log
S47L,-1.33 natural log
E44K,-1.37 natural log
L31M,-1.23 natural log
N42M,-1.48 natural log
N42P,-1.51 natural log
S47H,-1.49 natural log
N42Y,-1.45 natural log
K34V,-1.28 natural log
A40P,-1.52 natural log
R53H,-1.56 natural log
N42S,-1.49 natural log
A29S,-1.42 natural log
K39R,-1.4 natural log
E32G,-1.51 natural log

# Block 4
# Target: Sal-like protein 4, full length isoform B (SALL4, Homo sapiens, UniProt Q9UJQ4-2, residues 1-616)
# Technique: universal PBM
# Molecule type: double-stranded DNA, one strand shown
# Sample: in vitro
# Concentration: not given
# Setting: 8-mer, flanks averaged, mean of replicates
# Direction: higher = stronger binding
# Target sequence (chain): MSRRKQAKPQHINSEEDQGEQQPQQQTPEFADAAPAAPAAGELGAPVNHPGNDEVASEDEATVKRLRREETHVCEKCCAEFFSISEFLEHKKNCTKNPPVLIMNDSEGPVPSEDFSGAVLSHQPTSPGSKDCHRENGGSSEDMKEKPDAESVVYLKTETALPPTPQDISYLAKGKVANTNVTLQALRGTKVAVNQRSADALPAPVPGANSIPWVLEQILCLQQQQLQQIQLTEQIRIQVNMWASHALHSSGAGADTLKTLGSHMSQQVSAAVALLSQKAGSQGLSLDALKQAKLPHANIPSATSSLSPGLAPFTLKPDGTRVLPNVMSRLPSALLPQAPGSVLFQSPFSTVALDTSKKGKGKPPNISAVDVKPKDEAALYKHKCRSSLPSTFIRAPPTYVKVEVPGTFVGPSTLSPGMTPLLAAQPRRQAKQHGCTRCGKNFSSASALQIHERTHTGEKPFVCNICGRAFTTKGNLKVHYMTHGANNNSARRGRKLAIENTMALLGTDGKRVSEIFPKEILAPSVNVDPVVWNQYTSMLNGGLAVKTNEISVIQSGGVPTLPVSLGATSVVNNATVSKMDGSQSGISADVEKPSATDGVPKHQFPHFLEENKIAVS
Oligonucleotide,E-score
CCCGGGGC,-0.43
GTGGTAGA,-0.175
CATGTTTC,0.126
CGTCCTAC,-0.188
AAGCAATA,0.226
GATAATGA,0.288
AGAGGTGC,-0.226
ACATCACC,-0.0442
CCACGTTC,-0.188
CGGGGATC,-0.388
ATTGGGCG,-0.0518
CACATGTC,-0.0357
CGCCTACC,-0.163
CCTTGGAC,-0.184
CCTAGAAG,-0.00071
ACAGTAGT,0.111
AGGGGCAT,0.0217
AGAACCAT,0.131
TATACGCA,0.114
CGAGTTGA,-0.16
ACATGCGG,-0.128
ATAAACAT,0.371
ACAGAAGC,0.0387
ATATGAGC,0.264
TATTTCGA,0.301

# Block 5
# Target: RNA binding protein fox-1 homolog 2, RRM domain, GST-SBP tag (RBFOX2, Homo sapiens, UniProt O43251-10, residues 100-194)
# Technique: RNA Bind-n-Seq
# Molecule type: RNA
# Sample: in vitro
# Concentration: 365 nM
# Setting: natural RNA segment, single round, ends assumed
# Reference: no-protein control
# Direction: higher = stronger binding
# Shared flanks, not repeated: GGGAGUUCUACAGUCCGACGAUC … UGGAAUUCUCGGGUGCCAA
# Residues (chain): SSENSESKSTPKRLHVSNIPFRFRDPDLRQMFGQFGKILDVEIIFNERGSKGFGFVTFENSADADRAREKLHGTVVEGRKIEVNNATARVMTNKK
Oligonucleotide,RBNS enrichment (R)
UCUUGUGAUAACCACGCUACUUGCCUUUGCUAGAGCUCUCUGUGGCCAACCCUGGGAAAUGCUAAUCAUGACCUUCACACCAAACAUUCAGAAGUAGGCUGUGUCCCAUC,0.375
UUCCACACCCUAGUGUGUGUAAGUUCCUCGCUCAUAGGAAAUGCAACAGUUUGAGGGAGCAUUGCCCCUUUGUUCCUGUGAGGACUGGCAGGCUUUGACUGACCUCUCAU,0.329
UGGGUGGCGGUGGUGGGGCCGGGUGGGCCCCCGCCCAGCGCCUGCUGGAAUGAGAAGCACAGACUCCGCCACGGACUCCUUUUCUCUCCCUCCUCCCGCCCCGCCAGGCC,0.893
UACUGUCUGCGGGUUCUUUUACCUGCUCUCCCUCAGUGAGUCCUCAACCACCCUGGGCCCAGAAACAGAGGCCUGCCGAGGGGAGGAGCCUGGCCUCUGUCCACCCGUCA,0.489
GGGCCCCUUUUCCGAAGCCACUUCCAGGCCAAGGCAGUCGCCAGGGCUUCUUGUCCCCACCUUCUGAACCUUCUUCAAACAGUAGUACAAGCUCCCCUCAGCCAGCCUGC,0.305
UUCUUAACUGACUAGAAAGAGCCACCAGCAUUACUCUGUGCCUUUUGGACAUCAGUUUGUGUGUUCUGUAGGAAUUGUGUGCAUUCCAUUCACACAGUAUUUCUUUAGGA,0.431
CCGAGGAACUUACAGGAGGAGCCUAGGUCUGAAGUCAGUGUUAGGGAAGGGCCCAUAGCCACUUCCUCUGCUCCUGAGCAGGGCUGAAGCCGUUUGCAAGGGACUUGCUU,0.325
CAAGGAUGAAAAGCACAUGGAAAAAAAUGGAUGAGGAGGGAAAACUCUGCCAAAUGGAAAAUGACCAAAUUUAAGAGGGUGGGACAGUCCCCUGCUCCUCUCCCAGAGGG,1.82
AUGGACGACGAAGAAGACUUCAACAAUUCACCUGCCCUGGGGAACAACAGCCCGUGGAACAGUAAACCUCCCGCCACGCAAGAGACCAAAUCAGAAAACGCCCCACCCCA,0.879
GCAACUGCUAAACUAUGCAGUUUUUCUUGAAGGAACUAAAAGCAACUAGCUCCCUAAUGGUCUAUAAUUUUAUUUCUUUUGGCUUAAAGUGAAAAAGAAGAAAUAGAGAA,0.489
ACGCUCUGGGAGGGGUACUGGGUACCCCACCCUUCACUGAGGCCUUUGGAUUUGUCUCAGUGCCUUAGCAUCUGAAAACCUGUGCUUGUAUAUGUGUGUGUAUGUGUAGG,0.925
UACAGGCGUGAGCCACUGCGCCCGGGCAAGACCUUUUUUUAAAAAAAAAAAAAAAAAAACUUCCAUUCUUUCUUCCUCCAGUCUGUUCUCACAUAACAGAGUAGUUUUGG,0.467

# Block 6
# Target: PABPC1L2, full length, GST fusion (mouse, UniProt A0ABA7IW68)
# Technique: RNAcompete
# Molecule type: RNA
# Sample: in vitro
# Concentration: 20 nM
# Setting: 7-mer, probes averaged, single round
# Reference: mean of 7-mers
# Direction: higher = stronger binding
# Residues (chain): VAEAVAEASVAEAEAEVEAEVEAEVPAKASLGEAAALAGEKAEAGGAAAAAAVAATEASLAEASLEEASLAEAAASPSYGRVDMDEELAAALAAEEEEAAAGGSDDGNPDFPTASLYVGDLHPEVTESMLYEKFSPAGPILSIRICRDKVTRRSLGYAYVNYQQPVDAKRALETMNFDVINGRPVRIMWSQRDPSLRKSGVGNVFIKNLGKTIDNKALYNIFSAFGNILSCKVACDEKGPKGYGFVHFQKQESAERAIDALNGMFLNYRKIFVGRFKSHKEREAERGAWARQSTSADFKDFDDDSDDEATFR
Oligonucleotide,7-mer Z-score
GCGAGUA,-0.153
GAAUGUC,-0.19
AGGCCAA,0.184
UGCCCUG,-0.309
GAAGCAA,0.262
GUAACGA,0.0388
CAUACGC,-0.228
UAGUCGU,-0.391
CGCCCGA,-0.311
UAUUCUG,-0.342
GUAAUCA,-0.179
CAAGCUU,-0.271
AGCAACU,-0.0881
ACUUGUU,-0.414
CGCCUUG,-0.382
AUGUGUA,-0.273
ACCAAUU,-0.11
ACUGACC,-0.00289
CUUGUCG,-0.396
GACUAGU,-0.182
UCUUUAG,-0.0591
ACGACCA,0.135
AACUACA,0.244
UGAAUAU,-0.112

# Block 7
# Target: CCNA1, cyclin fold, Cln2 fusion (human)
# Technique: yeast growth competition, sequencing
# Sample: yeast
# Setting: weak parent motif
# Reference: not given
# Direction: higher = stronger binding
# Starting sequence: SAMHD1 docking peptide (human); ASKSRVQLFKDDP; partner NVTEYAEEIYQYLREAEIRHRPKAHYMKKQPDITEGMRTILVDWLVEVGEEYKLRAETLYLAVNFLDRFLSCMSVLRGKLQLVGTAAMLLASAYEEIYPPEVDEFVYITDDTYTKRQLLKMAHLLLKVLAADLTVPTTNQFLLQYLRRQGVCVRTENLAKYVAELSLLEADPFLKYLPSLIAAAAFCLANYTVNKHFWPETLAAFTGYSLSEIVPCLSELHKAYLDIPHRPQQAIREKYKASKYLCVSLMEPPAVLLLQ
Substitution,normalised enrichment score
ASKSRVQLFKMDP [D11M],0.111
ASKSRVQLFKDIP [D12I],0.443
ASKSRVLLFKDDP [Q7L],0.137
ASKSTVQLFKDDP [R5T],0.215
ASKSRVQLFCDDP [K10C],0.247
ASKSHVQLFKDDP [R5H],0.119
ASKSRVQLFKGDP [D11G],0.243
ASKSQVQLFKDDP [R5Q],0.328
ASKSRVQLFEDDP [K10E],0.433
ASKSRVQLFKFDP [D11F],0.338
ASKYRVQLFKDDP [S4Y],0.356
AHKSRVQLFKDDP [S2H],0.695
ASKSRVQLGKDDP [F9G],-0.148
ASKSYVQLFKDDP [R5Y],-0.231
ASESRVQLFKDDP [K3E],-0.0795
ASKLRVQLFKDDP [S4L],0.623
ASKSRVCLFKDDP [Q7C],0.176

# For quick reference, copied from above (block 4):
Oligonucleotide,E-score
ATTGGGCG,-0.0518
CACATGTC,-0.0357
AGAGGTGC,-0.226
ACAGTAGT,0.111
AGGGGCAT,0.0217
CGGGGATC,-0.388
TATTTCGA,0.301
AAGCAATA,0.226
ACATGCGG,-0.128
CCTAGAAG,-0.00071
TATACGCA,0.114
GATAATGA,0.288
ATAAACAT,0.371
ACATCACC,-0.0442
ATATGAGC,0.264
CGAGTTGA,-0.16
GTGGTAGA,-0.175
CATGTTTC,0.126
ACAGAAGC,0.0387
